Experimental data pooled from the literature.
Each line is one published result; not all experiments were run side by side.
F2 mature alpha-thrombin: Prothrombin, mature alpha-thrombin (F2, Homo sapiens, UniProt P00734)
UniProt P07270, sequence (whole entry, looked up): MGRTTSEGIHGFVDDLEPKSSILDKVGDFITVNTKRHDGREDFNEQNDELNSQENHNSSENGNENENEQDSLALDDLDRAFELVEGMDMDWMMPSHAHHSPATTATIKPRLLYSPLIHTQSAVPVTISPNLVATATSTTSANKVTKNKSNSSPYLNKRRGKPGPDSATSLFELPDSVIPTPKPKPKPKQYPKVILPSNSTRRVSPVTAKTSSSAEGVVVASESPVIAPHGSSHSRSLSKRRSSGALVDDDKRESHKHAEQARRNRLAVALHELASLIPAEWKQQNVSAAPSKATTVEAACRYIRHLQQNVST
UniProt Q9Y261, sequence (142-269, looked up): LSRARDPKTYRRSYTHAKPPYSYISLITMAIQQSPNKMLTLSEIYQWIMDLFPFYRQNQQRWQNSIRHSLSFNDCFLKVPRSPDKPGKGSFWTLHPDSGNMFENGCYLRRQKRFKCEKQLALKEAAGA

`ACTGATAC` gave an E-score of -0.0121 (Histone acetyltransferase KAT6A, both winged helices, GST fusion (KAT6A, Homo sapiens, UniProt Q92794, residues 1-181); protein binding microarray; double-stranded DNA, one strand shown, in vitro; not given, 8-mer, flanks averaged, mean of 2 arrays, mostly near background; baseline: not given, higher = stronger binding).
`GGTTGGTGTGGTTGG (2'F-ANA at 4 11 13 14)`: “mean fluorescence intensity” 83.2 a.u. (F2 mature alpha-thrombin; aptamer microarray, sandwich; DNA with 2'F-ANA, in vitro; 200 nM, whole 15-mer aptamer, many near background, added: Cy3 exosite-II aptamer, 400 nM; higher = stronger binding).
For `GTCTTGTCTCATTTTCACGTGTGCTTCCCCACTTCAGTCTTGATTCGCTTGACGCTGCTG`, the fluorescence intensity was 10000 a.u. (Phosphate system positive regulatory protein PHO4, full length, GST-tagged (PHO4, Saccharomyces cerevisiae, UniProt P07270, residues 1-312); competition protein-binding microarray; double-stranded DNA, one strand shown, in vitro; 2 µM, whole 60-bp probe, lowest competitor level, added: Cbf1 competitor, 0.05 µM; higher = stronger binding).
With `GATGGGCC` the E-score was -0.344 (Sal-like protein 4, full length isoform B (SALL4, Homo sapiens, UniProt Q9UJQ4-2, residues 1-616); universal PBM; double-stranded DNA, one strand shown, in vitro; not given, 8-mer, flanks averaged, mean of replicates; higher = stronger binding).
The E-score of `ATACCTAA` is reported as 0.254 (Hepatocyte nuclear factor 3-beta, forkhead domain (FOXA2, Homo sapiens, UniProt Q9Y261, residues 142-269); protein-binding microarray; double-stranded DNA, one strand shown, in vitro; not given, k-mer, scored over probes, only values ≥0.25; higher = stronger binding).
For `GGTTGGTGTGGTTGG (2'F-ANA at 1 2 4 9 10 11 12 13 14)`, “mean fluorescence intensity” read 49.4 a.u. (F2 mature alpha-thrombin; aptamer microarray, sandwich; DNA with 2'F-ANA, in vitro; 200 nM, whole 15-mer aptamer, many near background, added: Cy3 exosite-II aptamer, 400 nM; higher = stronger binding).
The fold induction of `PhoQ, residues 284 288 289 292 302 303 TASMAF` is reported as 2.94 (PhoP, residues 12 14 15 18 19 SPWRL (Escherichia coli, UniProt P23836); Sort-seq, item: YFP reporter; E. coli; PhoQ-PhoP variant library, added: 10 µM Mg2+; baseline: high Mg2+ state, higher = stronger signaling).
With `GGCAGCGA` the E-score was -0.288 (Sal-like protein 4, full length isoform A (SALL4, Homo sapiens, UniProt Q9UJQ4, residues 1-1053); universal PBM; double-stranded DNA, one strand shown, in vitro; 600 nM, 8-mer, flanks averaged, mean of replicates; higher = stronger binding).

Excerpt of the above:
With `GATGGGCC` the E-score was -0.344 (Sal-like protein 4, full length isoform B (SALL4, Homo sapiens, UniProt Q9UJQ4-2, residues 1-616); universal PBM; double-stranded DNA, one strand shown, in vitro; not given, 8-mer, flanks averaged, mean of replicates; higher = stronger binding).
